Experimental data gathered from unrelated publications.
Compare with care: the assays were run in different laboratories. ± marks the error that the study gave.

With `Cl.Cl.Cl.Cl.Cl.Cl.Cl.Cl.Cl.Cl.Cl.Cl.NC[C@@H]1O[C@H](O[C@H]2[C@@H](O)[C@H](O[C@@H]3[C@@H](O)[C@H](N)C[C@H](N)[C@H]3O[C@H]3O[C@H](CN)[C@@H](O)[C@H](O)[C@H]3N)O[C@@H]2Cn2cc(CCCCCCc3cn(C[C@H]4O[C@@H](O[C@@H]5[C@@H](O)[C@H](N)C[C@H](N)[C@H]5O[C@H]5O[C@H](CN)[C@@H](O)[C@H](O)[C@H]5N)[C@H](O)[C@@H]4O[C@H]4O[C@@H](CN)[C@@H](O)[C@H](O)[C@H]4N)nn3)nn2)[C@H](N)[C@@H](O)[C@@H]1O` the Tm was 74.9 °C (HIV-1 TAR RNA; UV thermal denaturation; 1 molar equivalents to RNA, pH 6.8, TAR RNA 1 µM per strand).
For `Cc1ccc(C(C)C)cc1.F[P-](F)(F)(F)(F)F.[Cl][Ru-]1[NH2+]CC[NH2+]1`, the delta Tm was -1.3 °C (calf thymus DNA; thermal denaturation; 0.5 equivalents per DNA, 1 h, pH 7.39, 25 °C, 25 mM NaClO4).
For `Cc1ncsc1-c1ccc(CNC(=O)[C@@H]2C[C@@H](O)CN2C(=O)[C@@H](NC(=O)Cc2ccc(-c3ccc(CNC(=O)c4cc5c(cc4CS(C)(=O)=O)-c4cn(C)c(=O)c6[nH]cc(c46)CN5c4ncc(F)cc4F)cc3)cc2)C(C)(C)C)cc1`, the Dmax was > 70% (BRD3 (Spodoptera frugiperda); protein degradation, degrader, targeted LC-MS; Sf9).
The potency ratio of `CC[C@H](C)[C@@H]1NC(=O)[C@H](Cc2ccc(O)cc2)NC(=O)[C@@H](N)CSSC[C@@H](C(=O)N2CCC[C@H]2C(=O)N2CCC[C@H]2C(=O)NCC(N)=O)NC(=O)[C@H](CC(N)=O)NC(=O)[C@H](CCC(N)=O)NC1=O` is reported as ~10 (titi monkey oxytocin receptor; membrane hyperpolarization, agonist; CHO; reference: compound over vasopressin).
`CCC(=O)C[C@@H](O)C[C@@H](C)C[C@H](NC(=O)[C@@H]1C[C@H](C)CN1C(=O)/C=C/[C@@H](C)CC)C(=O)N[C@H](C(=O)NC(C)(C)C(=O)N[C@@H](CC(C)C)C(=O)N[C@@H](CC(C)C)C(=O)NC(C)(C)C(=O)NC(C)(C)C(=O)NCCC(=O)N[C@@H](C)CNC)[C@H](O)C(C)C`: phospho-RPS6 level “decreased” (mTORC1; inhibitor, immunoblot; MDA-MB-453; 100 nM, 2 h).
For `N=C(N)Nc1ccc(-c2nc3ccc(-c4ccc5nc(-c6ccc(NC(=N)N)cc6)[nH]c5c4)cc3[nH]2)cc1`, the IC50 was 4600 ± 100 nM (r(CUG)12-MBNL1 complex; complex formation, inhibitor, TR-FRET).
`NC(=O)[C@H](CO)NC(=O)[C@@H]1CCCN1C(=O)[C@H](Cc1ccc(O)cc1)NC(=O)CNC(=O)[C@H](Cc1ccccc1)NC(=O)[C@@H](CCCCN=C=S)NC(=O)[C@@H](N)Cc1ccc(O)cc1` gave an IC50 of 0.38 ± 0.08 nM (mu opioid receptor; radioligand binding; CHO cells; together with: 1 nM [3H]DAMGO).
Under “V1/2 of activation”, `COC[C@@H](NC(C)=O)C(=O)NCc1ccc(OCc2ccccc2)cc1` is recorded as -36.3 ± 4.9 mV (rat voltage-gated sodium channels; whole-cell patch clamp; rat embryonic cortical neurons; 10 µM).
`Cl.Cl.Cl.Cl.Cl.Cl.Cl.Cl.Cl.Cl.Cl.Cl.NC[C@@H]1O[C@H](O[C@H]2[C@@H](O)[C@H](O[C@@H]3[C@@H](O)[C@H](N)C[C@H](N)[C@H]3O[C@H]3O[C@H](CN)[C@@H](O)[C@H](O)[C@H]3N)O[C@@H]2Cn2cc(-c3ccc(-c4cn(C[C@H]5O[C@@H](O[C@@H]6[C@@H](O)[C@H](N)C[C@H](N)[C@H]6O[C@H]6O[C@H](CN)[C@@H](O)[C@H](O)[C@H]6N)[C@H](O)[C@@H]5O[C@H]5O[C@@H](CN)[C@@H](O)[C@H](O)[C@H]5N)nn4)cc3)nn2)[C@H](N)[C@@H](O)[C@@H]1O` has a Tm of 78.5 °C (HIV-1 TAR RNA; UV thermal denaturation; 1 molar equivalents to RNA, pH 6.8, TAR RNA 1 µM per strand).
With `CN(CCCNC(=O)c1cccc(C(=O)O)c1)CCCNC(=O)c1cc(NC(=O)c2cc(NC(=O)c3cc(NC(=O)c4nc(NC(=O)C[C@@H](N)CNC(=O)c5cc(NC(=O)c6cc(NC(=O)c7cc(NC(=O)c8nccn8C)cn7C)cn6C)cn5C)cn4C)cn3C)cn2C)cn1C` the Tm was 78.4 °C (androgen response element DNA duplex; DNA binding; 2 µM, pH 7.0).
`CC(=NNC(N)=S)c1ccc2ccccc2c1.CC(=NNC(N)=S)c1ccc2ccccc2c1.[Cl][Co][Cl]` — result for “apparent binding constant”: 3980 M⁻¹ (calf thymus DNA; fluorescence competition; together with: ethidium bromide).
`O=C1c2ccccc2N(Cc2ccc(F)cc2)C12CCCC2` has a remaining activity of 83.7 ± 1.02% (butyrylcholinesterase; 10 µM).
`CC(=O)N[C@@H](CNC(=O)c1cc(NC(=O)c2cc(NC(=O)c3cc(NC(=O)c4nccn4C)cn3C)cn2C)cn1C)CC(=O)Nc1cn(C)c(C(=O)Nc2cc(C(=O)Nc3cc(C(=O)Nc4cc(C(=O)NCCCN(C)CCCNC(=O)c5cccc(C(=O)O)c5)n(C)c4)n(C)c3)n(C)c2)n1` gave a Tm of 76 °C (androgen response element DNA duplex; DNA binding; 2 µM, pH 7.0).
`CC(=O)NCCCC[C@@H](NC(=O)[C@@H](N)Cc1ccc(O)cc1)C(=O)N[C@@H](Cc1ccccc1)C(=O)NCC(=O)N[C@@H](Cc1ccc(O)cc1)C(=O)N1CCC[C@H]1C(=O)N[C@@H](CO)C(N)=O` has an IC50 of 29.8 ± 7.6 nM (mu opioid receptor; radioligand binding; CHO cells; together with: 1 nM [3H]DAMGO).
The IC50 of `CC1CCCCCCCCCCCCC(=O)C1` (stereo not shown) is reported as 2230 ± 800 nM (odorant-binding protein 3 (Manis javanica); competitive binding; pH 7.4).
With `Cc1cc(Nc2nc(C[C@@]3(C(=O)O)CCN(Cc4cccc(Cl)c4F)[C@H](C)C3)cc(C)c2F)[nH]n1` the inhibition was 73% (AURKA (Thr288 phosphorylation), mouse; AURKA phosphorylation, inhibitor, refers to: phospho-AURKA Thr288; mouse, NCI-H446 xenograft, tumour; oral, 5 mg/kg single dose, 1 h).
The IC50 of `CCO[C@H]1[C@H](O)[C@@H](N)[C@@H](O[C@H]2[C@H](O[C@@H]3O[C@H](CO)[C@@H](O[C@H]4O[C@@H](CN)[C@@H](O)[C@H](O)[C@H]4N)[C@H]3O)[C@@H](O)[C@H](N)C[C@@H]2N)O[C@@H]1CO` is reported as 37.6 ± 14.1 µg/mL (rabbit reticulocyte ribosome; luciferase translation, cell-free translation; rabbit reticulocyte lysate).
`CC(C)C[C@@H]1NC(=O)[C@H](CCC(N)=O)NC(=O)[C@H](CCC(=O)O)NC(=O)[C@@H](N)CSSC[C@@H](C(=O)O)NC(=O)[C@H](CC(C)C)NC(=O)[C@H]([C@@H](C)O)NC(=O)[C@H](CCCCN)NC(=O)[C@H](CO)NC(=O)[C@H](CCCCN)NC(=O)[C@H](CCCCN)NC1=O` gave an IC50 of 206 nM (Mac-1 (CD40L binding); cell adhesion, flow chamber; CHO expressing Mac-1; shear stress).
For `O=C1c2ccccc2N(Cc2cccc(Cl)c2)C12CCCC2`, the remaining activity was 72.4 ± 9.17% (butyrylcholinesterase; 10 µM).
